Published values gathered from unrelated publications.
Compare with care: the assays were run in different laboratories. ± marks the error that the study gave.
Chain of UniProt Q08460 (whole entry, looked up): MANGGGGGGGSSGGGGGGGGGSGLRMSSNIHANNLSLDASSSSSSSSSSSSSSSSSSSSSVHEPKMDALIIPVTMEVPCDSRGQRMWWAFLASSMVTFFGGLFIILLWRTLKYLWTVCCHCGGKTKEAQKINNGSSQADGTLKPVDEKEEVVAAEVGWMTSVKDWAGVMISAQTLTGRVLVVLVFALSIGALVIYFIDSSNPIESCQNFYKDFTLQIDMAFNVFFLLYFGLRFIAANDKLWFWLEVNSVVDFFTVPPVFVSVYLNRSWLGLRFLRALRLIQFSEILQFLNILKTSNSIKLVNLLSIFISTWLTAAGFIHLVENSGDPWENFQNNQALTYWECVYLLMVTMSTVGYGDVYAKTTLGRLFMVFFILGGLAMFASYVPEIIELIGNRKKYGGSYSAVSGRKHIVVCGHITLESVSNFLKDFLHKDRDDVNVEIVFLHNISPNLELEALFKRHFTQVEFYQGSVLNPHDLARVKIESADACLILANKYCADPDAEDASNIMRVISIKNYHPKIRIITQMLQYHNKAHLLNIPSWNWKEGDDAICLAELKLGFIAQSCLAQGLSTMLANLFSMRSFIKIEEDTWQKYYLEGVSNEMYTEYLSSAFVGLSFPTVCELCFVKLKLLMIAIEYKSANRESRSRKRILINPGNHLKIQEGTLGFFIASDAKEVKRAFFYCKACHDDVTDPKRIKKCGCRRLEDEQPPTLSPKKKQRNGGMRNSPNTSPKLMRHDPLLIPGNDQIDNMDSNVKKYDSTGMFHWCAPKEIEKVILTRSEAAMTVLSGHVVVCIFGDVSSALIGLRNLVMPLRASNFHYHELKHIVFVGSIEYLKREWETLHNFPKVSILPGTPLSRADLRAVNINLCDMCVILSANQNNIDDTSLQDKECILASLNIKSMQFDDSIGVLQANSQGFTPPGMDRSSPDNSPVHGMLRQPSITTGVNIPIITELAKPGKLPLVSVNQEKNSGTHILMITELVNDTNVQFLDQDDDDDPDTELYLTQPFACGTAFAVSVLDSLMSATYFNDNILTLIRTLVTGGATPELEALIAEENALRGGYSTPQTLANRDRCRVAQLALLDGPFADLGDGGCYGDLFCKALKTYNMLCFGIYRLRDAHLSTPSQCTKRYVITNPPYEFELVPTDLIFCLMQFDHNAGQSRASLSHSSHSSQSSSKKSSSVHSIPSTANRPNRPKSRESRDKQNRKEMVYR
Chain of UniProt Q07011 (whole entry, looked up): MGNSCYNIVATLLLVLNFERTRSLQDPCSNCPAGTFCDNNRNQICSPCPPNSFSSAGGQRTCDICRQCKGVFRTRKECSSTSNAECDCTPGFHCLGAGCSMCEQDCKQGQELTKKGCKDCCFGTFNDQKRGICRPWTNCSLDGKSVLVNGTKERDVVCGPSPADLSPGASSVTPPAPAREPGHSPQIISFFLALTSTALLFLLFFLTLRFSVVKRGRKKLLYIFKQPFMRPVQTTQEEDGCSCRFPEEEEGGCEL
Chain of UniProt P0AC13 (whole entry, looked up): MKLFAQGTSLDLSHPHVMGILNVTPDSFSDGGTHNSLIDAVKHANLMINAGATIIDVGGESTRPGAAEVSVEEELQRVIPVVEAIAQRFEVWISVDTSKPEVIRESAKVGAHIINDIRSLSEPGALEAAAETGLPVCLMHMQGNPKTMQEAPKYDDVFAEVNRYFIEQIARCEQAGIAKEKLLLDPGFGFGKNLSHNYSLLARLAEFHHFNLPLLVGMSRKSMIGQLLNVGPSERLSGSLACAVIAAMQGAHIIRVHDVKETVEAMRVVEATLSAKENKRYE
Chain of UniProt Q9VK33 (whole entry, looked up): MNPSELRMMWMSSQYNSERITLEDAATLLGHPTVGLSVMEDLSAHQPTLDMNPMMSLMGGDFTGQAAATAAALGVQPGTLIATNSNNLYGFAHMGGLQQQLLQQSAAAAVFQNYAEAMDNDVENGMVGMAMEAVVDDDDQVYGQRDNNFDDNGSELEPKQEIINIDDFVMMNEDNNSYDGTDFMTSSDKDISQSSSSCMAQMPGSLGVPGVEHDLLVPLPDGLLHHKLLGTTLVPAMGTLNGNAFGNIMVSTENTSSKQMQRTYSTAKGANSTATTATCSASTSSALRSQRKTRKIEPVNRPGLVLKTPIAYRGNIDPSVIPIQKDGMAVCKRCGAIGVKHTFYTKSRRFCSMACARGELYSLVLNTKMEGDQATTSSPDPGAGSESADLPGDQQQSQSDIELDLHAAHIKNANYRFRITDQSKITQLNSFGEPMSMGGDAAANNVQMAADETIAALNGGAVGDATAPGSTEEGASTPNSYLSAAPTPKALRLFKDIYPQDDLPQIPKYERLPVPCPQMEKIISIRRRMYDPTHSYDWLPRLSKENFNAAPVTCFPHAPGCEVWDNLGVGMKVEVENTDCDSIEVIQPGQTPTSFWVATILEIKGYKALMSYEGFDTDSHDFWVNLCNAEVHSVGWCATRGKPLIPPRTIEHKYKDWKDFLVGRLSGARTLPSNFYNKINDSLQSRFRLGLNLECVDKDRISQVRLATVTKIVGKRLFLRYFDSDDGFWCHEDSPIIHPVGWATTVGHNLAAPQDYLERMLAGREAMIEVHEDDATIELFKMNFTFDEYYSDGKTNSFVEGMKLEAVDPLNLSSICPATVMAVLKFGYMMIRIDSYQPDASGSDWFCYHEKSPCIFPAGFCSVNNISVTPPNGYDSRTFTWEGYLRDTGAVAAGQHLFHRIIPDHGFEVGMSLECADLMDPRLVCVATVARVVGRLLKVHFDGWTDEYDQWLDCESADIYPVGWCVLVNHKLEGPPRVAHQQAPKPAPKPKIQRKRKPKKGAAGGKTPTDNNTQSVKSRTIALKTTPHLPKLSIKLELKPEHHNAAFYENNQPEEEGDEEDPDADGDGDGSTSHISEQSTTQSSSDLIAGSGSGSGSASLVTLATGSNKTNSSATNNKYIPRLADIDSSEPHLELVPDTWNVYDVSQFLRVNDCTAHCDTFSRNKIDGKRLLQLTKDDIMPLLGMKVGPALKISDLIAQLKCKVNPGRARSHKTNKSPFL
Chain of UniProt O00459 (whole entry, looked up): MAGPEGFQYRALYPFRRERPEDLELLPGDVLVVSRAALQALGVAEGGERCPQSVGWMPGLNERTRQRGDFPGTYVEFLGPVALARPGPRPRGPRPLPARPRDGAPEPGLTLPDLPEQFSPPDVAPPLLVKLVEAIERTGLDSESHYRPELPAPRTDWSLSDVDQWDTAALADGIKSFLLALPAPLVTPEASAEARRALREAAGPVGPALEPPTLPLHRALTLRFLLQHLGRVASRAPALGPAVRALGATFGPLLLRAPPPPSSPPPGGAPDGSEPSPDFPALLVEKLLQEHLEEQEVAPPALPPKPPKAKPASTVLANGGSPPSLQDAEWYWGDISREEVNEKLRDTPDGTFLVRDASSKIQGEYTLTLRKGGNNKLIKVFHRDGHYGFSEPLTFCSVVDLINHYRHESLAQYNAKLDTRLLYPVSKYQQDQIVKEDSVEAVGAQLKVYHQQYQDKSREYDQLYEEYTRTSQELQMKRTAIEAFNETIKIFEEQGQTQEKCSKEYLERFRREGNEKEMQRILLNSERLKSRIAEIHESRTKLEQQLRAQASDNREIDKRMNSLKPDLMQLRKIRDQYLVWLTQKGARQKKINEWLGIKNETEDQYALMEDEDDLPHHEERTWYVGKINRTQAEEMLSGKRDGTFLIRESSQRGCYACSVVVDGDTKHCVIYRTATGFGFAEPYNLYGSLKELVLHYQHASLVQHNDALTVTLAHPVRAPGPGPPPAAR
Chain of UniProt Q9NZQ7 (whole entry, looked up): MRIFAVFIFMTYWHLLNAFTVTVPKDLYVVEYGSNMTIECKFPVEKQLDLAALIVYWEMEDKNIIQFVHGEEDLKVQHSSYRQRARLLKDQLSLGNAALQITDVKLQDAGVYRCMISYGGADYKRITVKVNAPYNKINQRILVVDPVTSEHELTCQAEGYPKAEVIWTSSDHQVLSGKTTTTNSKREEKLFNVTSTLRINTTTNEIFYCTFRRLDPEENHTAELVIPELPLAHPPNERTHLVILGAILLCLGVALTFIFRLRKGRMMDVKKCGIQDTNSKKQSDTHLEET
Chain of UniProt P10415 (whole entry, looked up): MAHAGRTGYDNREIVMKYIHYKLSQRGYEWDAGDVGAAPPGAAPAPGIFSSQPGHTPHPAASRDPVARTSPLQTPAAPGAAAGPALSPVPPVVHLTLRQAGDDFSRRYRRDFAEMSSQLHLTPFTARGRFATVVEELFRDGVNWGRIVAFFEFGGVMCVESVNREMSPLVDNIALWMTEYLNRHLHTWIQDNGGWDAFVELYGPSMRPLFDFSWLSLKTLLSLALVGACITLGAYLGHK
Chain of UniProt Q15835 (whole entry, looked up): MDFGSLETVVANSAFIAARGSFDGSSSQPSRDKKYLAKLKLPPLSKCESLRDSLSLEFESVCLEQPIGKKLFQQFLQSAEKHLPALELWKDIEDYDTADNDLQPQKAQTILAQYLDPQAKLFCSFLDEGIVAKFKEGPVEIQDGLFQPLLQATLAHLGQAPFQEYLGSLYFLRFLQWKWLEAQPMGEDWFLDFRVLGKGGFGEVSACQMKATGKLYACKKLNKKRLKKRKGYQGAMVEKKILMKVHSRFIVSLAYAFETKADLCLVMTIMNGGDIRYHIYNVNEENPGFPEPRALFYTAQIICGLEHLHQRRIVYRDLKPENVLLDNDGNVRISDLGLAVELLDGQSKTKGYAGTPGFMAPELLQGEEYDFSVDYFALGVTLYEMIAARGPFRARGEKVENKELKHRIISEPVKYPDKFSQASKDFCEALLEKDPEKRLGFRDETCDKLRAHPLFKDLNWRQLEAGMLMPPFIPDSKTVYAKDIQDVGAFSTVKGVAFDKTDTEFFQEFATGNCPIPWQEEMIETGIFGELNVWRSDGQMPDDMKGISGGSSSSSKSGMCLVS

O=C(Nc1ccccc1SSc1ccccc1NC(=O)c1ccccc1)c1ccccc1 gave a Kd of 77.6 nM (CD274 (Homo sapiens, UniProt Q9NZQ7); binding, SPR).
With Cn1nc(CCN)c(=O)c2c(=O)[nH]c(N)nc21 the Kd was 38.3 nM (folP (Bacteria, UniProt P0AC13); binding, SPR).
With CCCC[C@H](NC(=O)[C@H](CCC(=O)O)NC(=O)[C@H](CCCCN)NC(=O)[C@H](CO)NC(=O)[C@H](Cc1ccccc1)NC(C)=O)C(=O)N[C@@H](CCCNC(=N)N)C(=O)N[C@@H](CC(N)=O)C(=O)N[C@@H](CCCNC(=N)N)C(=O)N[C@@H](Cc1ccncc1)C(=O)N[C@@H](Cc1c[nH]c2ccccc12)C(=O)N[C@@H](CCCC(=O)NCCN(CC(=O)NCCN(CC(=O)NCCN(CC(=O)NCCN(CC(N)=O)C(=O)Cn1cnc2c(=O)[nH]c(N)nc21)C(=O)Cn1ccc(N)nc1=O)C(=O)Cn1ccc(N)nc1=O)C(=O)Cn1cnc2c(=O)[nH]c(N)nc21)C(=O)N[C@@H](CS)C(=O)N[C@@H](C)C(=O)N[C@@H](CC(C)C)C(=O)N[C@@H](CC(=O)O)C(=O)N1CCC[C@H]1C(=O)N[C@@H](CC(N)=O)C(=O)N[C@@H](CC(C)C)C(=O)N[C@H](C(=O)N[C@@H](CC(N)=O)C(=O)N[C@@H](CCC(N)=O)C(=O)N[C@@H](CCC(N)=O)C(=O)N[C@@H](CCCCN)C(=O)N[C@@H](CCCNC(=N)N)C(=O)N[C@@H](C)C(=O)N[C@@H](CCCCNC(=O)CN(CCNC(=O)CN(CCNC(=O)CN(CCNC(=O)CN(CCNC(=O)[C@H](CCCNC(=N)N)NC(C)=O)C(=O)Cn1ccc(N)nc1=O)C(=O)Cn1cnc2c(=O)[nH]c(N)nc21)C(=O)Cn1cnc2c(=O)[nH]c(N)nc21)C(=O)Cn1ccc(N)nc1=O)C(=O)N[C@H](C(=O)N[C@@H](CCCNC(=N)N)C(=O)N[C@@H](CO)C(=O)N[C@H](C(=O)N[C@@H](Cc1ccc(O)cc1)C(=O)N[C@@H](CCC(=O)O)C(=O)N[C@@H](CCC(=O)O)C(=O)NCC(=O)N[C@@H](CCC(=O)O)C(N)=O)[C@@H](C)CC)[C@@H](C)CC)[C@@H](C)O the Kd was 17 nM (ERBB2 (Homo sapiens, UniProt P04626); binding, SPR).
For CC[C@H](C)[C@H](NC(=O)c1ccc2c(c1)C(=O)OC21c2ccc(N(C)C)cc2Oc2cc(N(C)C)ccc21)C(=O)N[C@H](C(=O)N[C@@H](C)C(=O)N[C@@H](CC(C)C)C(=O)N[C@H](C(=O)N[C@@H](CO)C(=O)N[C@@H](CC(N)=O)C(=O)N[C@@H](CCC(N)=O)C(=O)N[C@@H](CCC(=O)O)C(=O)N[C@@H](Cc1ccc(OP(=O)(O)O)cc1)C(=O)N[C@@H](CC(C)C)C(=O)N[C@@H](CC(=O)O)C(=O)N[C@@H](CC(C)C)C(=O)N[C@@H](CO)C(=O)N[C@@H](CCSC)C(=O)N1CCC[C@H]1C(=O)N[C@@H](CC(C)C)C(=O)N[C@@H](CC(=O)O)C(=O)O)[C@@H](C)O)C(C)C, the Kd was 1100 nM (Phosphatidylinositol 3-kinase regulatory subunit beta, SH2 domain (Homo sapiens, UniProt O00459); binding).
For COc1ccccc1-c1n[nH]c2nc(N[C@H]3CC[C@H](NS(=O)(=O)CC(C)C)CC3)ncc12, the relative abundance was 0.31 (bead binding, competition bead pull-down, refers to: LINJ.24.1500; Leishmania donovani extract; 10 µM; reference: vehicle).
O=C(N[C@@H]1c2ccccc2C[C@H]1N1CCCC1)c1ccc(-c2ccnc3[nH]ccc23)nc1 gave a Kd of 710 nM (GRK1 (Homo sapiens, UniProt Q15835); binding, competition with immobilised ligand).
The Kd of CC[C@@H](C)[C@@H](NC(=O)[C@@H](CCC(N)=O)NC(=O)[C@H](NC(=O)[C@H]1CCCN1C(=O)[C@H](NC(=O)[C@@H](CO)NC(=O)[C@@H](Cc1ccccc1)NC(=O)[C@H]1CCCN1C(=O)[C@@H](CCC(N)=O)NC(=O)[C@H](N)CCSC)[C@H](C)CC)C(C)C)C(=O)N[C@@H](C(=O)N[C@H](CC(C)C)C(=O)N[C@H](CCC(N)=O)C(=O)NCC(=O)N[C@H](CO)C(=O)N[C@H](CCCNC(=N)N)C(=O)N[C@H](CCCNC(=N)N)C(=O)N[C@H](CCCNC(=N)N)C(=O)N[C@H](CCC(N)=O)C(=O)NCC(=O)N[C@H](CCCNC(=N)N)C(N)=O)[C@H](C)O is reported as 2700 nM (Kcnma1 (Mus musculus, UniProt Q08460); ion current, blocker, inside-out patch clamp; Xenopus oocytes; +120 mV, together with: 10 µM cytosolic Ca2+).
CC(C)C[C@H](NC(=O)[C@@H](N)CCC(N)=O)C(=O)N[C@@H](C)C(=O)N[C@H](C(=O)N[C@@H](CCCCN)C(=O)N[C@@H](C)C(=O)N[C@@H](C)C(=O)N[C@@H](CCCNC(=N)N)C(=O)N[C@@H](CCCCN(C)C)C(=O)N[C@@H](CO)C(=O)N[C@@H](C)C(=O)N1CCC[C@H]1C(=O)N[C@@H](C)C(=O)N[C@H](C(=O)NCC(=O)NCC(=O)N[C@H](C(N)=O)C(C)C)[C@@H](C)O)[C@@H](C)O has a Kd of 20300 nM (Polycomb protein Sfmbt (Sfmbt, Drosophila melanogaster, UniProt Q9VK33); fluorescence polarization; pH 8.0).
With CC(C)(C)C(=O)OCOP(=O)(OCOC(=O)C(C)(C)C)C1CCCN(O)C1=O (stereo not drawn) the log TGI was -5.24 log M (Malme-3M).
The Kd of CC[C@H](C)[C@H](NC(=O)[C@H](CCC(=O)O)NC(=O)[C@H](CCCNC(=N)N)NC(=O)[C@H](C)NC(=O)[C@H](Cc1c[nH]c2ccccc12)NC(=O)[C@H](CCC(N)=O)NC(=O)[C@H](CCC(=O)O)NC(=O)[C@H](CCC(=O)O)NC(=O)[C@H](CCC(=O)O)NC(=O)CNC(=O)[C@H](CCCNC(=N)N)NC(=O)CCCCCNC(=O)CCNC(=S)Nc1ccc2c(c1)C(=O)OC21c2ccc(O)cc2Oc2cc(O)ccc21)C(=O)NCC(=O)N[C@@H](C)C(=O)N[C@@H](CCC(N)=O)C(=O)N[C@@H](CC(C)C)C(=O)N[C@@H](CCCNC(=N)N)C(=O)N[C@@H](CCCNC(=N)N)C(=O)N[C@@H](CCSC)C(=O)N[C@@H](C)C(=O)N[C@@H](CC(=O)O)C(=O)N[C@@H](CC(=O)O)C(=O)N[C@@H](CC(C)C)C(=O)N[C@@H](CC(N)=O)C(=O)O is reported as 24 nM (BCL2 (Homo sapiens, UniProt P10415); binding).
COc1ccccc1-c1n[nH]c2nc(NC3CCN(C(=O)Cc4ccc(F)cc4F)CC3)ncc12 gave a relative abundance of 0.95 (bead binding, competition bead pull-down, refers to: LINJ.36.3100; Leishmania donovani extract; 10 µM; reference: vehicle).
For CC(=O)N[C@@H](CO)C(=O)N[C@@H](Cc1ccccc1)C(=O)N[C@@H](CCC(=O)O)C(=O)N[C@@H](Cc1ccccc1)C(=O)N1CC[C@@H]2C=C[C@H]3CC[C@@H](C(=O)N4CCC[C@H]4C(=O)N4CCC[C@H]4C(=O)N[C@H](C(=O)N[C@@H](CCC(=O)O)C(=O)N[C@@H](CC(=O)O)C(=O)N[C@@H](CCC(=O)O)C(=O)N[C@@H](CC(C)C)C(N)=O)[C@@H](C)O)N3C(=O)[C@H]21, the Kd was 40000 nM (VASP (Homo sapiens, UniProt P50552); binding, fluorescence).
The inhibition of CS(C)(=O)=Nc1ccc(-c2ccc(-c3nc4cc(O[C@@H]5CO[C@H]6[C@@H]5OC[C@H]6O)[nH]c4cc3F)cc2)cc1 is reported as 0% (GABA transporter; binding; 10 µM).
With O=C1NC2(CC2)COc2ncc(F)cc2[C@H]2COCCN2c2ccn3ncc1c3n2 the serum urea was 3.31 ± 0.66 mmol/L (Sprague-Dawley rat, female, serum; oral, 20 mg/kg/day, end of recovery, 4-week subacute toxicity).
The Kd of CCCC[C@@H]1NC(=O)[C@H](Cc2ccc(O)cc2)NC(=O)[C@@H]2CCCN2C(=O)[C@H](CC(=O)O)NC(=O)[C@H](C)NC(=O)[C@H](Cc2ccccc2)NC(=O)[C@@H]2CSCCC(=O)N3CN(CN(C3)C(=O)CCSC[C@@H](C(=O)N[C@@H](CNC(=O)CCOCCOCCOCCN(CCOCCOCCOCCn3cc(CCC(=O)NCCC(=O)N[C@H]4CSCCC(=O)N5CN6CN(C5)C(=O)CCSC[C@H](NC(=O)[C@@H](CC(=O)O)NC(=O)[C@H](Cc5cccc7ccccc57)NC(=O)[C@@H]5CCCN5C4=O)C(=O)N[C@@H](CCSC)C(=O)N[C@@H](CCCCNC(=N)N)C(=O)N[C@@H](CC(=O)O)C(=O)N[C@@H](Cc4c[nH]c5ccccc45)C(=O)N[C@@H](CO)C(=O)N[C@@H]([C@@H](C)O)C(=O)N4CCC[C@H]4C(=O)N4C[C@H](O)C[C@H]4C(=O)N[C@@H](Cc4c[nH]c5ccccc45)C(=O)N[C@H](C(N)=O)CSCCC6=O)nn3)CCOCCOCCOCCn3cc(CCC(=O)NCCC(=O)N[C@H]4CSCCC(=O)N5CN6CN(C5)C(=O)CCSC[C@H](NC(=O)[C@@H](CC(=O)O)NC(=O)[C@H](Cc5cccc7ccccc57)NC(=O)[C@@H]5CCCN5C4=O)C(=O)N[C@@H](CCSC)C(=O)N[C@@H](CCCCNC(=N)N)C(=O)N[C@@H](CC(=O)O)C(=O)N[C@@H](Cc4c[nH]c5ccccc45)C(=O)N[C@@H](CO)C(=O)N[C@@H]([C@@H](C)O)C(=O)N4CCC[C@H]4C(=O)N4C[C@H](O)C[C@H]4C(=O)N[C@@H](Cc4c[nH]c5ccccc45)C(=O)N[C@H](C(N)=O)CSCCC6=O)nn3)C(N)=O)NC1=O)C(=O)CCSC[C@H](NC(C)=O)C(=O)N[C@@H](CC(C)(C)C)C(=O)N1CCC[C@H]1C(=O)N[C@@H](CCC(=O)O)C(=O)N[C@H](C)C(=O)N1CCC[C@H]1C(=O)N[C@@H](Cc1ccc(O)cc1)C(=O)N2 is reported as 14 nM (Tumor necrosis factor receptor superfamily member 9 (Homo sapiens, UniProt Q07011); binding, SPR).

A few entries again:
For COc1ccccc1-c1n[nH]c2nc(N[C@H]3CC[C@H](NS(=O)(=O)CC(C)C)CC3)ncc12, the relative abundance was 0.31 (bead binding, competition bead pull-down, refers to: LINJ.24.1500; Leishmania donovani extract; 10 µM; reference: vehicle).
With Cn1nc(CCN)c(=O)c2c(=O)[nH]c(N)nc21 the Kd was 38.3 nM (folP (Bacteria, UniProt P0AC13); binding, SPR).
